# Published values collected from several papers.
# Each line is one published result; not all experiments were run side by side.
# TMPRSS2: Transmembrane protease serine 2 (TMPRSS2, Homo sapiens, UniProt O15393)
# Chain of UniProt O15393 (whole entry, looked up): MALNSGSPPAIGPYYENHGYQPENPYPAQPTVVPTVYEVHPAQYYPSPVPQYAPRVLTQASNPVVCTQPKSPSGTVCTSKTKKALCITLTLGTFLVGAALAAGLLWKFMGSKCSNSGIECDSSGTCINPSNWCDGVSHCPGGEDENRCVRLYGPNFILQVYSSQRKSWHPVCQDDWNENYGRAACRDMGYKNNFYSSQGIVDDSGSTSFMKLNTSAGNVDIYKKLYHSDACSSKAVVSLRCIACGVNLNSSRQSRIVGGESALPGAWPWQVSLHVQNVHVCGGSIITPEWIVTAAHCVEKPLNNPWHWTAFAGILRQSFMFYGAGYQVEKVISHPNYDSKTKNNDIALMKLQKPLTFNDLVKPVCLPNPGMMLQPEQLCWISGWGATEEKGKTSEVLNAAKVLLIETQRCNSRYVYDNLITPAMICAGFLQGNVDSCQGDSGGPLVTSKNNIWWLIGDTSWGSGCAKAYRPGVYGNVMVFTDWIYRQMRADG
# PFF0160c: Dihydroorotate dehydrogenase (quinone), mitochondrial (PFF0160c, Plasmodium falciparum, UniProt Q08210)
# Chain of UniProt Q08210 (whole entry, looked up): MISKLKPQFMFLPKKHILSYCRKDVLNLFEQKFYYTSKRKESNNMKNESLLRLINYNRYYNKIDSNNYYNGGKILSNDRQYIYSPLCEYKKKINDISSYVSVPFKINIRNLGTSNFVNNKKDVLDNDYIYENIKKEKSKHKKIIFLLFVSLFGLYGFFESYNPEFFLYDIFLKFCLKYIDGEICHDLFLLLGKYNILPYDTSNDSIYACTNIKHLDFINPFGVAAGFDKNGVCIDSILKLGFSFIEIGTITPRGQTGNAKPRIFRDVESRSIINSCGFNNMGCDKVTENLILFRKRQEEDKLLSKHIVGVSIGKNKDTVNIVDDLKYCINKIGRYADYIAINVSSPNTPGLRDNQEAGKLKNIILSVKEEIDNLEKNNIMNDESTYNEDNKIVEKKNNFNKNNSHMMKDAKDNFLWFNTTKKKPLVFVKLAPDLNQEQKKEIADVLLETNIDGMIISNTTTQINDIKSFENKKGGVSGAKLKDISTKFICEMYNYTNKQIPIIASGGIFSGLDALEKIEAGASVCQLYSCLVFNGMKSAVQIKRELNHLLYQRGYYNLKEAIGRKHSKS
# Chain of UniProt Q8N752 (whole entry, looked up): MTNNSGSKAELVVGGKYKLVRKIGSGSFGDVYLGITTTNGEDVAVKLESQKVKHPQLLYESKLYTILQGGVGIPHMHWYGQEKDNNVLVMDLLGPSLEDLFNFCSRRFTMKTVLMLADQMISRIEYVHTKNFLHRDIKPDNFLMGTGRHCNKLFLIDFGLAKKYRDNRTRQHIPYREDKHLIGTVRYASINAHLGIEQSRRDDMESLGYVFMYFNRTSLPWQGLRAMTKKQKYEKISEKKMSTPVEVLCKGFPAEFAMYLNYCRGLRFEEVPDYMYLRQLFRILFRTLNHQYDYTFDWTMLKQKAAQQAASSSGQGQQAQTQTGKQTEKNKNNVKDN
# Chain of UniProt P53671 (whole entry, looked up): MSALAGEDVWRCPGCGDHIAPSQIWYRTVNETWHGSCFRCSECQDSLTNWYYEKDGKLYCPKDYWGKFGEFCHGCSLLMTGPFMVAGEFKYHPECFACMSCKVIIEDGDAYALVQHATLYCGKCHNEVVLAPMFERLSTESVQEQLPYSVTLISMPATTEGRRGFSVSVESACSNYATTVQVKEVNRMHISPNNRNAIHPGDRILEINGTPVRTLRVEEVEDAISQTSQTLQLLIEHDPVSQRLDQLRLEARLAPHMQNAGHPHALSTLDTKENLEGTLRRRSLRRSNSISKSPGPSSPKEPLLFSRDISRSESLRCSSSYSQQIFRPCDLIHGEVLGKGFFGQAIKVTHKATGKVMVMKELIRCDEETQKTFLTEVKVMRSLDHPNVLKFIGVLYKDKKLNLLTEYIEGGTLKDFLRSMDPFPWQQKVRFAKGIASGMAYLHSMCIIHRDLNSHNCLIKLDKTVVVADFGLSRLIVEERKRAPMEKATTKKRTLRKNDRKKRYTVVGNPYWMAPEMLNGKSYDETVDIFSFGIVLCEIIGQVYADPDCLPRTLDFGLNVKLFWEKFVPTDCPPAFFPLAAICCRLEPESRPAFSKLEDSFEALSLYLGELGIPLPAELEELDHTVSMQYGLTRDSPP
# Chain of UniProt P54760 (whole entry, looked up): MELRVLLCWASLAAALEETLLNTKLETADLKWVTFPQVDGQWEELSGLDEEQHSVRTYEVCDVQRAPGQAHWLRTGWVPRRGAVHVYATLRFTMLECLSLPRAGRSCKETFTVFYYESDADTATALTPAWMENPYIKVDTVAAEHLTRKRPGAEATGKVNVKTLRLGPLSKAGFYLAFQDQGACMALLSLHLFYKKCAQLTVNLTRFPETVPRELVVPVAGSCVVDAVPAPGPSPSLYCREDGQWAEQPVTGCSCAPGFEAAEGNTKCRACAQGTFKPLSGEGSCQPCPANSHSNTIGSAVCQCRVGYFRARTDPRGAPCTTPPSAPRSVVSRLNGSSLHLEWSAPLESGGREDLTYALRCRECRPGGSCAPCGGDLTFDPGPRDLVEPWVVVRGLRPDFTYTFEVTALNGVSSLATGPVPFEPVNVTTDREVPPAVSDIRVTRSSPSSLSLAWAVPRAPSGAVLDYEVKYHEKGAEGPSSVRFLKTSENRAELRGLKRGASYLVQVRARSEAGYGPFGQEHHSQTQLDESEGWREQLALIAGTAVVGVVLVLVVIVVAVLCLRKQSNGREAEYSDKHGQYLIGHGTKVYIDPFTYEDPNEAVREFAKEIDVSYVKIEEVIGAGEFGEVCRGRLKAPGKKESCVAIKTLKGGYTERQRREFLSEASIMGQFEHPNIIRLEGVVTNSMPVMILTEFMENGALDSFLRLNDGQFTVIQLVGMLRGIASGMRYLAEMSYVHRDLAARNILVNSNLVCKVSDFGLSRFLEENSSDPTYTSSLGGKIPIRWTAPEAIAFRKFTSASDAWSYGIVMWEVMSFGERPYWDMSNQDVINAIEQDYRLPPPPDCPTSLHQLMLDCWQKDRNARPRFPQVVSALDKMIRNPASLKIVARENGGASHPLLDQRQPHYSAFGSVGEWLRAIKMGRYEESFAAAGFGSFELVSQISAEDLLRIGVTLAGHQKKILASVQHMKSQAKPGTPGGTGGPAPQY
# Chain of UniProt P07711 (whole entry, looked up): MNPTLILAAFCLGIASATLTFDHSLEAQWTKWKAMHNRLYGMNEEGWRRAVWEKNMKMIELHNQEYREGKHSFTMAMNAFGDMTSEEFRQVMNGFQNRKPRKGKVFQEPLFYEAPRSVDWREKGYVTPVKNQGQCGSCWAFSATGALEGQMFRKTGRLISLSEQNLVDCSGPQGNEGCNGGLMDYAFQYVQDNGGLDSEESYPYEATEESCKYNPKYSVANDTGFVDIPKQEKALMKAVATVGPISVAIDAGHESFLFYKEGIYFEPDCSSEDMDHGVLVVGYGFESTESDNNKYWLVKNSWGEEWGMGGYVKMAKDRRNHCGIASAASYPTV
# Chain of UniProt O00444 (whole entry, looked up): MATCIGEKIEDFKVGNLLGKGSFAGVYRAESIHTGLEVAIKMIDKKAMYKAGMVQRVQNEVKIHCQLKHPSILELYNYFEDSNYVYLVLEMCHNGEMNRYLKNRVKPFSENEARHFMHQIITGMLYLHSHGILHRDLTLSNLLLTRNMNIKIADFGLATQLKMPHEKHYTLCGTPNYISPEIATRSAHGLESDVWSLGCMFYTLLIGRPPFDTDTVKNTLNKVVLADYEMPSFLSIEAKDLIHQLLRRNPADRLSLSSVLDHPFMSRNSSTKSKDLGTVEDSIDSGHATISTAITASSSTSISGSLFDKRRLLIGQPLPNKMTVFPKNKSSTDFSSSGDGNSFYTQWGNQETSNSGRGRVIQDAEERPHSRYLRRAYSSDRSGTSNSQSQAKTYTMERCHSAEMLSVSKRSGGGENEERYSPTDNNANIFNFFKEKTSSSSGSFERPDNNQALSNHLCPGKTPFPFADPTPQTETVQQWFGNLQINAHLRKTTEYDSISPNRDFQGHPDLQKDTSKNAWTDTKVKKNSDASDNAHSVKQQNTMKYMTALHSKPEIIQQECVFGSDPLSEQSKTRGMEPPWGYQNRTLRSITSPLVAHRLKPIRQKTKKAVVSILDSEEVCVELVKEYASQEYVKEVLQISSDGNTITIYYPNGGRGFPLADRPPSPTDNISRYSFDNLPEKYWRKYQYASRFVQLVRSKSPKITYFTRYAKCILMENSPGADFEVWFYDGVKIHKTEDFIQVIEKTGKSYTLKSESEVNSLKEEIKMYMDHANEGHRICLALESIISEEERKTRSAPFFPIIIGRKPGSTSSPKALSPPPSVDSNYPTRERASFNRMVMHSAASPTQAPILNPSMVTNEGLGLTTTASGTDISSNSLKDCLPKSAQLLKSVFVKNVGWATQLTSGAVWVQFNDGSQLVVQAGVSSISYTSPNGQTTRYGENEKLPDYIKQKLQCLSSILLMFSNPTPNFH
# Chain of UniProt Q9Y5N1 (whole entry, looked up): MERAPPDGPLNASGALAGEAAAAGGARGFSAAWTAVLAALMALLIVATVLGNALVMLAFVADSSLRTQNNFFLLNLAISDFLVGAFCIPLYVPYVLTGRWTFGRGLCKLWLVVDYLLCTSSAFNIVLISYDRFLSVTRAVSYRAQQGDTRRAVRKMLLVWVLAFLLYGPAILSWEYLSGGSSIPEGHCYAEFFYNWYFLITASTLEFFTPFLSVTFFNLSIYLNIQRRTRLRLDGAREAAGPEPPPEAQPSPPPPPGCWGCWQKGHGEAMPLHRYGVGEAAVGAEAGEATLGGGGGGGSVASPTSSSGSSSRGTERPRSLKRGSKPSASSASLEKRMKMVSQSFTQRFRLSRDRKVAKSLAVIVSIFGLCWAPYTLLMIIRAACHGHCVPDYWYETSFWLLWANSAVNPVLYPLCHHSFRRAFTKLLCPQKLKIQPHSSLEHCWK
Compound,target,assay,setting,endpoint,value
CN1CCC[C@H]1c1cccnc1,"Histamine H3 receptor (HRH3, Homo sapiens, UniProt Q9Y5N1)",ligand displacement,50 µM,inhibition,53.8%
CC(C)[C@H](NC(=O)[C@H](Cc1ccc(O)cc1)NC(=O)CCc1ccc(O)cc1)C(=O)N[C@@H](CCCNC(=N)N)C(=O)c1nc2ccccc2s1,TMPRSS2,"enzyme activity, inhibitor",1 nM,activity vs control,65%
Nc1ncc(-c2nc(N3CCOCC3)nc(N3CCOCC3)n2)c(C(F)F)n1,"Serine/threonine-protein kinase PLK4 (PLK4, Homo sapiens, UniProt O00444)","binding, competition with immobilised ligand",10 µM,remaining binding,69%
C#Cc1n[nH]c2c(-c3cn(C(C)c4ccccn4)c(=O)[nH]c3=O)cc(F)cc12 (centres unmarked),"Ephrin type-B receptor 4 (EPHB4, Homo sapiens, UniProt P54760)","enzyme activity, inhibitor",1 µM,inhibition,3.8%
C[C@H](NC(=O)[C@H](CCC(N)=O)NC(=O)[C@@H](N)CCCNC(=N)N)C(=O)N[C@@H](CCCNC(=N)N)C(=O)c1nc2ccccc2s1,TMPRSS2,"enzyme activity, inhibitor",1 nM,activity vs control,57%
O=CC=Cc1ccccc1,"Procathepsin L (CTSL, Homo sapiens, UniProt P07711)","enzyme activity, inhibitor",100 µM,remaining activity,151%
CCSc1nnc(C2CCCN(CC(=O)Nc3cc(C(F)(F)F)ccc3Cl)C2)n1CC (centres unmarked),PFF0160c,"enzyme activity, inhibitor, absorbance",,IC50,272 nM
Cc1nn(C)cc1-c1nc2c(N3CCN(Cc4ccc(Cl)cc4)CC3)c(Cl)cnc2[nH]1,"Hepatocyte growth factor receptor (MET, Homo sapiens, UniProt P08581, M1250T)","binding, competition with immobilised ligand",1 µM,remaining binding,93%
CCN(CC)CCCC[C@H](NC(=O)[C@H](CC(C)C)NC(=O)[C@H](C)NC(=O)[C@H](Cc1ccccc1)NC(=O)c1ccc(C(C)(C)C)cc1)C(=O)N[C@@H](CO)C(=O)OC,"Bromodomain-containing protein 2, BD2 (BRD2, Homo sapiens, UniProt P25440)","thermal stability, DSF",25 µM,ΔTm,0.04 °C
[2H]c1c([2H])c([C@]2([2H])CCCN2C(=O)C(C)(C)Oc2ccc3cn[nH]c3c2)c([2H])c([2H])c1C([2H])([2H])[2H],"Casein kinase I isoform alpha-like (CSNK1A1L, Homo sapiens, UniProt Q8N752)","binding, competition with immobilised ligand",1 µM,remaining binding,86%
C[C@@H](O)[C@@H](NC(=O)[C@H](CCc1ccccc1)NC(=O)CCc1ccccc1)C(=O)N[C@@H](CCCNC(=N)N)C(=O)c1nc2ccccc2s1,TMPRSS2,"enzyme activity, inhibitor",1 nM,activity vs control,87%
COc1ncccc1-c1cnn2ccc(N3CCN(C(=O)OC(C)C)CC3)nc12,"LIM domain kinase 2 (LIMK2, Homo sapiens, UniProt P53671)","binding, competition with immobilised ligand",1 µM,remaining binding,94%
CC(C)(C)[C@H](NC(=O)[C@H](CCc1ccccc1)NC(=O)CCc1ccccc1)C(=O)N[C@@H](CCCNC(=N)N)C(=O)c1nc2ccccc2s1,TMPRSS2,"enzyme activity, inhibitor",1 nM,activity vs control,100%
O=c1c(Br)c(C(F)(F)F)[nH]c2ccc(Oc3ccccc3)cc12,PFF0160c,"enzyme activity, inhibitor, absorbance",,IC50,1690 nM

# For quick reference, copied from above:
Compound,target,assay,setting,endpoint,value
CCSc1nnc(C2CCCN(CC(=O)Nc3cc(C(F)(F)F)ccc3Cl)C2)n1CC (centres unmarked),PFF0160c,"enzyme activity, inhibitor, absorbance",,IC50,272 nM
Cc1nn(C)cc1-c1nc2c(N3CCN(Cc4ccc(Cl)cc4)CC3)c(Cl)cnc2[nH]1,"Hepatocyte growth factor receptor (MET, Homo sapiens, UniProt P08581, M1250T)","binding, competition with immobilised ligand",1 µM,remaining binding,93%
